# Measurements from different studies.
# Numbers after ± are the reported error.
SMILES,organism,test,test system,conditions,quantity,result
OC[C@H]1O[C@@H](Oc2cc3c(O)cc(O)cc3[o+]c2-c2ccc(O)cc2)[C@H](O)[C@@H](O)[C@@H]1O,HIV-1,viral infection,"TZM-bl, BaL (CCR5-tropic)",48 h,IC50,> 100 µM
Cc1cc(CN)cc(C)c1NC(=O)c1ccc(-c2cc(Cl)ccc2Cl)o1,Toxoplasma gondii,"parasite growth, luciferase reporter","HFF, tachyzoite",72 h,EC50,1630 nM
CCCCC[C@H](O)/C=C/[C@@H]1[C@@H](C/C=C\CCCC(=O)O)[C@@H](O)C[C@H]1O,Leishmania martiniquensis,"promastigote growth, alamarBlue",,72 h,IC50,> 100 µM
Oc1ccc(-c2nc(-c3ccc(OC4CCCC4)cc3)no2)cc1,Clostridioides difficile,,ATCC 43255,spores,IC50,24 µg/mL
COc1cc(C)c(-c2c(C)cc(OC)c3c(=O)cc(-c4cccc(Br)c4)oc23)c2oc(-c3cccc(Br)c3)cc(=O)c12,Toxoplasma gondii,"parasite proliferation, 3H-uracil incorporation",ME49 tachyzoites,,IC50,12.3 ± 3.1 µM
c1ccc(-c2ccc3c(c2)NC(C2Nc4cc(-c5ccccc5)ccc4O2)O3)cc1 (stereo not shown),Leishmania martiniquensis,parasite growth,promastigotes,72 h,IC50,3.14 ± 1.76 µM
COc1cc(OC)c2c(=O)cc(-c3ccc(N(C)C)cc3)oc2c1,Toxoplasma gondii,"parasite proliferation, 3H-uracil incorporation",ME49 tachyzoites,,IC50,22.9 ± 14.1 µM
COc1cc(C#CC(=O)c2ccccc2OC)ccc1O,Pseudomonas aeruginosa,biofilm formation,PA14,static,IC50,21 µM
O=C(O)CCC(=O)OCCN(Cc1ccc(Oc2ccc([N+](=O)[O-])cc2)cc1)C(=O)C(Cl)Cl,Leishmania martiniquensis,parasite growth,"THP-1-derived macrophages, intracellular amastigotes",48 h,IC50,15.9 ± 4.56 µM
OC[C@H]1O[C@@H](Oc2cc3c(O)cc(O)cc3[o+]c2-c2ccc(O)c(O)c2)[C@H](O)[C@@H](O)[C@H]1O,HIV-1,viral infection,"TZM-bl, BaL (CCR5-tropic)",48 h,IC50,> 100 µM
O=C1C(O)=C([C@H]2CC[C@H](c3ccc(Cl)cc3)CC2)C(=O)c2ccccc21,Toxoplasma gondii,bradyzoite growth,,"pH 8.2, alkaline-induced bradyzoites",EC50,2070 nM
Cc1cc(NC(=O)Nc2ccc3c(c2)OC(F)(F)O3)cc(C(F)(F)F)n1,Leishmania donovani,,"MHOM/ET/67/L-82, axenic amastigotes",,IC50,0.13 µM
C[C@@H]1O[C@@H](OC[C@H]2O[C@@H](Oc3cc4c(O)cc(O)cc4[o+]c3-c3ccc(O)c(O)c3)[C@H](O)[C@@H](O)[C@@H]2O)[C@H](O)[C@H](O)[C@H]1O,HIV-1,viral infection,"TZM-bl, BaL (CCR5-tropic)",48 h,IC50,> 100 µM
O=C(Nc1ccc2c(c1)B(O)OC2)Nc1ccc(F)c(C(F)(F)F)c1,Leishmania donovani,,"MHOM/ET/67/L-82, axenic amastigotes",,IC50,0.97 µM
OC[C@H]1O[C@@H](Oc2cc3c(O)cc(O)cc3[o+]c2-c2ccc(O)c(O)c2)[C@H](O[C@@H]2OC[C@@H](O)[C@H](O)[C@H]2O)[C@@H](O)[C@@H]1O,HIV-1,viral infection,"TZM-bl, NL4-3 (CXCR4-tropic)",48 h,IC50,51.3 µM
O=C(C#Cc1ccc(F)c(F)c1)c1cccc(Cl)c1,Pseudomonas aeruginosa,biofilm formation,PA14,static,IC50,14 µM
COc1cc(-c2oc3cc(O)cc(O)c3c(=O)c2O[C@@H]2O[C@H](CO)[C@@H](O)[C@H](O)[C@H]2O)ccc1O,HIV-1,viral infection,"TZM-bl, NL4-3 (CXCR4-tropic)",48 h,IC50,> 100 µM
O=C(C#Cc1ccc(F)c(F)c1)c1ccccc1Cl,Pseudomonas aeruginosa,biofilm formation,PA14,static,IC50,10 µM
COc1cc(OC)c2c(=O)cc(-c3ccc(N(C)C)cc3)oc2c1-c1c(OC)cc(OC)c2c(=O)cc(-c3ccc(N(C)C)cc3)oc12,Toxoplasma gondii,"parasite proliferation, 3H-uracil incorporation",ME49 tachyzoites,,IC50,12.3 ± 4.01 µM

# Repeated from above:
SMILES,organism,test,test system,conditions,quantity,result
O=C(C#Cc1ccc(F)c(F)c1)c1ccccc1Cl,Pseudomonas aeruginosa,biofilm formation,PA14,static,IC50,10 µM
